Measurements gathered from unrelated publications.
Each line is one published result; not all experiments were run side by side. ± gives the spread as reported.

Compound	target or system	test	test system	setting	how to read	endpoint	result
O=C(NCc1ccc(F)cc1F)c1cn2ccn(CCCCO)c(=O)c2c(O)c1=O	human immunodeficiency virus 1	single-round vector infection	integrase G140S/Q148H	–	–	EC50	0.426 ± 0.0358 µM
O=C(NC1CCN(c2ncnc3[nH]cnc23)CC1)c1cccc(NS(=O)(=O)c2ccc(C(F)(F)F)cc2)c1	monkeypox virus E1/E12	–	–	0.7812 µM	–	inhibition	6.92%
Cc1cc(/C=C/C#N)cc(C)c1Nc1nc(Nc2ccc(C#N)cc2)ncc1N	HIV-1	viral replication, single-round infection	RT mutant G190S	–	–	EC50	0.0004 ± 7e-05 µM
CC[C@H](C)[C@@H]([C@@H](CC(=O)N1CCC[C@H]1[C@H](OC)[C@@H](C)C(=O)N[C@H](C)[C@@H](O)c1ccccc1)OC)N(C)C(=O)[C@@H](NC(=O)[C@H](C(C)C)N(C)C(=O)OCc1ccc(NC(=O)[C@H](CCCNC(N)=O)NC(=O)[C@@H](NC(=O)CCCC(=O)NCCC(=O)N(C)CC(=O)N(C)CC(=O)N(C)CC(=O)N(C)CC(=O)N(C)CC(=O)N(C)CC(=O)N(C)CC(=O)N(C)CC(=O)N(C)CC(=O)N(C)CC(=O)N[C@H]2CSCCC(=O)N3CN4CN(C3)C(=O)CCSC[C@H](NC(=O)[C@@H](CC(=O)O)NC(=O)[C@H](Cc3cccc5ccccc35)NC(=O)[C@@H]3CCCN3C2=O)C(=O)N[C@@H](CCSC)C(=O)N[C@@H](CCCCNC(=N)N)C(=O)N[C@@H](CC(=O)O)C(=O)N[C@@H](Cc2c[nH]c3ccccc23)C(=O)N[C@@H](CO)C(=O)N[C@@H]([C@@H](C)O)C(=O)N2CCC[C@H]2C(=O)N2C[C@H](O)C[C@H]2C(=O)N[C@@H](Cc2c[nH]c3ccccc23)C(=O)N[C@H](C(N)=O)CSCCC4=O)C(C)C)cc1)C(C)C	–	plasma protein binding	mouse plasma	2 µM, 2.5 h, pH 7.4	–	fu	0.118
CCCCCCCCCCCCCCCC(=O)N[C@@H](CCC(=O)NCCCC[C@H](NC(=O)[C@H](CC(=O)O)NC(=O)[C@H](CO)NC(=O)[C@@H](NC(=O)[C@H](Cc1ccccc1)NC(=O)[C@@H](NC(=O)CNC(=O)[C@H](CCC(N)=O)NC(=O)[C@H](C)NC(=O)[C@@H](Cc1ccc(O)cc1)NC(C)=O)[C@@H](C)O)[C@@H](C)O)C(=O)N[C@@H](CO)C(=O)N[C@@H](CCCCN)C(=O)N[C@@H](Cc1ccc(O)cc1)C(=O)N[C@@H](CC(C)C)C(=O)N[C@@H](CC(=O)O)C(=O)N[C@@H](CCC(=O)O)C(=O)N[C@@H](CCCNC(=N)N)C(=O)N[C@@H](C)C(=O)N[C@@H](C)C(=O)N[C@@H](CCC(N)=O)C(=O)N[C@@H](CC(=O)O)C(=O)N[C@@H](Cc1ccccc1)C(=O)N[C@H](C(=O)N[C@@H](CCC(N)=O)C(=O)N[C@@H](Cc1c[nH]c2ccccc12)C(=O)N[C@@H](CC(C)C)C(=O)N[C@@H](CC(C)C)C(=O)N[C@@H](CCC(=O)O)C(=O)NCC(=O)NCC(=O)N1CCC[C@H]1C(=O)N[C@@H](CO)C(=O)N[C@@H](CO)C(=O)NCC(=O)N[C@@H](C)C(=O)N1CCC[C@H]1C(=O)N1CCC[C@H]1C(=O)N1CCC[C@H]1C(=O)N[C@@H](CO)C(N)=O)C(C)C)C(=O)O	–	–	male Wistar rat, plasma	subcutaneous, 0.02 mg/kg	–	Cmax	0.0216 µg/mL
O=c1cc(-c2ccccc2)oc2c(Br)c(O)c(O)c(O)c12	chikungunya virus	–	C57BL/6 mouse, CHIKV-infected, plasma	oral, 250 mg/kg twice daily, 12 h after dose 5	–	trough concentration	2190 ± 1440 ng/mL
Cc1cc(/C=C/C#N)cc(C)c1-n1cnc2cnc(Nc3ccc(C#N)cc3)nc21	HIV-1	viral replication, single-round infection	RT mutant K103N/P225H	–	–	EC50	0.0021 ± 0.0009 µM
COCC(C)N1CCn2cc(C(=O)NCc3ccc(F)cc3F)c(=O)c(O)c2C1=O (stereo not shown)	human immunodeficiency virus 1	single-round vector infection	integrase G140S/Q148H	–	–	EC50	0.0344 ± 0.0017 µM
Cc1cn(C2CCC(OC(C(=O)O)P(=O)(O)O)C2)c(=O)[nH]c1=O (racemic)	HIV-1 reverse transcriptase E138K	enzyme activity, inhibitor	–	with: poly(rA)·oligo(dT), [3H]dTTP	relative to: mutant over wild type	fold resistance	1 fold
CCCCCCCCCCCCCCCC(=O)N[C@@H](CCC(=O)NCCOCCOCCC(=O)NCCOCCOCCC(=O)NCCCC[C@H](NC(=O)[C@H](CC(=O)O)NC(=O)[C@H](CC(C)C)NC(=O)[C@H](Cc1ccc(O)cc1)NC(=O)[C@H](CCCCN)NC(=O)[C@H](CO)NC(=O)[C@H](Cc1ccc(O)cc1)NC(=O)[C@H](CC(=O)O)NC(=O)[C@H](CO)NC(=O)[C@@H](NC(=O)[C@H](Cc1ccccc1)NC(=O)[C@@H](NC(=O)CNC(=O)[C@H](CCC(N)=O)NC(=O)[C@@H](CO)NC(=O)[C@@H](N)Cc1c[nH]cn1)[C@@H](C)O)[C@@H](C)O)C(=O)N[C@@H](CCCNC(=N)N)C(=O)N[C@@H](CCCNC(=N)N)C(=O)N[C@@H](C)C(=O)N[C@@H](CCC(N)=O)C(=O)N[C@@H](CC(=O)O)C(=O)N[C@@H](Cc1ccccc1)C(=O)N[C@H](C(=O)N[C@@H](CCC(N)=O)C(=O)N[C@@H](Cc1c[nH]c2ccccc12)C(=O)N[C@@H](CC(C)C)C(=O)N[C@@H](CC(C)C)C(=O)N[C@@H](CC(N)=O)C(=O)N[C@H](C(=O)NCC(=O)NCC(=O)N1CCC[C@H]1C(=O)N[C@@H](CO)C(=O)N[C@@H](CO)C(=O)NCC(=O)N[C@@H](C)C(=O)N1CCC[C@H]1C(=O)N1CCC[C@H]1C(=O)N1CCC[C@H]1C(=O)N[C@@H](CO)C(N)=O)[C@@H](C)O)C(C)C)C(=O)O	–	item: ALP	rhesus monkey, female	subcutaneous, 60 µg/kg once daily, 28 days	–	serum enzyme activity	260 ± 65.2 U/L
COc1ccc(-c2cnnn2-c2cc(OC)c(OC)c(OC)c2)cc1N	MDA-MB-231	cytotoxicity, nuclei counting	–	24 h	–	EC50	0.0112 ± 0.00076 µM
CC[C@@H](C)[C@@H](NC(=O)[C@@H](CCCCN)NC(=O)[C@@H](CCCCN)NC(=O)[C@@H](CC(C)C)NC(=O)[C@@H](Cc1c[nH]c2ccccc12)NC(=O)CN)C(=O)NCC(=O)N[C@H](CCCCN)C(=O)N[C@H](CCCCN)C(=O)N[C@@H](C(=O)N[C@H](CCC(=O)O)C(=O)N[C@H](CCCNC(=N)N)C(=O)N[C@@H](C(=O)NCC(=O)N[C@H](CCC(N)=O)C(=O)N[C@H](Cc1c[nH]cn1)C(=O)N[C@@H](C(=O)N[C@H](CCCNC(=N)N)C(=O)N[C@H](CC(=O)O)C(=O)N[C@H](C)C(=O)N[C@@H](C(=O)N[C@@H](C(=O)N[C@H](CCC(N)=O)C(=O)N[C@@H](C(=O)N[C@@H](C(=O)NCC(=O)N[C@@H](C(=O)N[C@H](C)C(=O)N[C@H](CCC(N)=O)C(=O)N[C@H](CCC(N)=O)C(=O)N[C@H](C)C(=O)N[C@H](C)C(=O)N[C@H](CC(N)=O)C(=O)N[C@@H](C(=O)N[C@H](C)C(=O)N[C@H](C)C(=O)N[C@@H](C(=O)N[C@H](CC(C)C)C(=O)N[C@H](CCCCN)C(N)=O)[C@H](C)O)C(C)C)C(C)C)[C@H](C)CC)[C@H](C)O)[C@H](C)CC)[C@H](C)O)[C@H](C)O)C(C)C)[C@H](C)CC	Klebsiella pneumoniae	–	isolate RKI 93/10, CAMHB	–	–	MIC	> 1020 mg/L
COCCn1ccn2cc(C(=O)NCc3ccc(F)cc3F)c(=O)c(O)c2c1=O	human immunodeficiency virus 1	single-round vector infection	integrase N155H	–	–	EC50	0.0119 ± 0.0023 µM

Excerpt of the above:
Compound	target or system	test	test system	setting	how to read	endpoint	result
O=C(NCc1ccc(F)cc1F)c1cn2ccn(CCCCO)c(=O)c2c(O)c1=O	human immunodeficiency virus 1	single-round vector infection	integrase G140S/Q148H	–	–	EC50	0.426 ± 0.0358 µM
